Assay results from different studies.
Compare with care: the assays were run in different laboratories.
U2AF2: U2AF2 148-342 (Homo sapiens, UniProt P26368)
Sequence of UniProt P26368 (whole entry, looked up): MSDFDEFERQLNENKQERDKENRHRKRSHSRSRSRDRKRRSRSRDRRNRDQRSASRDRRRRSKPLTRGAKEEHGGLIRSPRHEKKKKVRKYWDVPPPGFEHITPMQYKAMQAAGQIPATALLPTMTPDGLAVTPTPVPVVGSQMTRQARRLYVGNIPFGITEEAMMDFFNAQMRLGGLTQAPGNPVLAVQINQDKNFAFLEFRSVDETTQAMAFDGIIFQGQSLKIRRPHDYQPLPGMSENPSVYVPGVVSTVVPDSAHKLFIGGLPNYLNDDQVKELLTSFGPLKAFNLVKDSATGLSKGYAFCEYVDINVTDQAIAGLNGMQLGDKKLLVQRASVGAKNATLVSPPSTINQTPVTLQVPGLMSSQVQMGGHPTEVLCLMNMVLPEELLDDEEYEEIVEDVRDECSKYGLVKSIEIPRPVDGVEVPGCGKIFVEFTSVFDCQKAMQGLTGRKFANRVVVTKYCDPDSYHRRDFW
PARP1: PARP1 1-1014 (Homo sapiens, UniProt P09874)
Sequence of UniProt P09874 (whole entry, looked up): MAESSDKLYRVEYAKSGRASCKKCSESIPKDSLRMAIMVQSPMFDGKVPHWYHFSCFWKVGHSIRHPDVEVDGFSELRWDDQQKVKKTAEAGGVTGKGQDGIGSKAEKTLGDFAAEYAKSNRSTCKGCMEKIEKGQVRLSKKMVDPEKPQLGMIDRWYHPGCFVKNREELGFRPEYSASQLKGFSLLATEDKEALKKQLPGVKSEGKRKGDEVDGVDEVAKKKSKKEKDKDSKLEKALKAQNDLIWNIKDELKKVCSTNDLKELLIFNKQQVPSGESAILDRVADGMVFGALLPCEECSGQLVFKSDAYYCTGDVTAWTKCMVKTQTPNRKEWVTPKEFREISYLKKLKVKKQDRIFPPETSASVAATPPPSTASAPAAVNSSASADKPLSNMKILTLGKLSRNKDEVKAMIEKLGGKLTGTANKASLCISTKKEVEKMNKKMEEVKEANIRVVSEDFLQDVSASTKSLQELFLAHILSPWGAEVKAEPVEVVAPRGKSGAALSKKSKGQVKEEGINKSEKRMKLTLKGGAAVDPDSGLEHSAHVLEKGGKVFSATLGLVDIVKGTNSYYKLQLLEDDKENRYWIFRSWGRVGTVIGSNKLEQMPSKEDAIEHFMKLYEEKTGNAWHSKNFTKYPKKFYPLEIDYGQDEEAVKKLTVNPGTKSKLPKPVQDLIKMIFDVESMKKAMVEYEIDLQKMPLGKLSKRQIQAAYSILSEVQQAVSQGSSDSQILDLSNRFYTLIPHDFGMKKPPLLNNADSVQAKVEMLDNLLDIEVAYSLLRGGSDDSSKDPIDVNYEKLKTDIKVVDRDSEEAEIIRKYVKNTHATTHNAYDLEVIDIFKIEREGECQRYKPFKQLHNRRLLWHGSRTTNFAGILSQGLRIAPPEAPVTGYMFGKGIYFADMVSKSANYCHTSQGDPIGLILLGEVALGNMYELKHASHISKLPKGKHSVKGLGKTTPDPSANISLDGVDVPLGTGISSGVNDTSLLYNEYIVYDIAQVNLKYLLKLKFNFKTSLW
Sequence of UniProt P05846 (whole entry, looked up): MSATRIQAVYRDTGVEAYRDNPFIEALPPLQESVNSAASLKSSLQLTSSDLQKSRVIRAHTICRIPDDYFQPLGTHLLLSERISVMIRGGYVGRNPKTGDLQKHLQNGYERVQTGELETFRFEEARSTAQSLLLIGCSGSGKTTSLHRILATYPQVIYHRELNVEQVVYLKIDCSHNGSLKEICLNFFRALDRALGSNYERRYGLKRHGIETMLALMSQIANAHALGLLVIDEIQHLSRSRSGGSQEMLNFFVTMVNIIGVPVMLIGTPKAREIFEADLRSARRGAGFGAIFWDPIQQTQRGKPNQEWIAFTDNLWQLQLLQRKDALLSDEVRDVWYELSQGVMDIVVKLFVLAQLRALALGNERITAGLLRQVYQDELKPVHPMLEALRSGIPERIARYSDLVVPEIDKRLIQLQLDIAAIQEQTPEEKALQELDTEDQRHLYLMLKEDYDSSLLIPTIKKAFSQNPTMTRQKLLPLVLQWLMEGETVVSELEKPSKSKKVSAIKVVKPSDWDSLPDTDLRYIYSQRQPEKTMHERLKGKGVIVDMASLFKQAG
Sequence of UniProt Q13118 (whole entry, looked up): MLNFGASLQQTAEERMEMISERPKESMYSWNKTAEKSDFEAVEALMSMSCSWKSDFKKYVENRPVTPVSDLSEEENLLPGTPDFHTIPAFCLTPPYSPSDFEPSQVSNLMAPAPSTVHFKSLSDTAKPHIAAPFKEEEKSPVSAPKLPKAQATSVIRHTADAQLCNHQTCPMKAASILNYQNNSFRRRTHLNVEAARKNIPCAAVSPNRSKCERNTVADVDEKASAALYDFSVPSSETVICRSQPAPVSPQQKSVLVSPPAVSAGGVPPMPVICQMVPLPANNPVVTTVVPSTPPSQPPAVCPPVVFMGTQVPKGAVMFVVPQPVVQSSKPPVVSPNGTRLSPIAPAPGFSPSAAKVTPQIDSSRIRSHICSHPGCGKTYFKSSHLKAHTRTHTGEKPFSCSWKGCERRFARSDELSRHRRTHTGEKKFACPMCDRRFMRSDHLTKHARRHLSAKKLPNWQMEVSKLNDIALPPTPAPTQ
Sequence of UniProt O95905 (whole entry, looked up): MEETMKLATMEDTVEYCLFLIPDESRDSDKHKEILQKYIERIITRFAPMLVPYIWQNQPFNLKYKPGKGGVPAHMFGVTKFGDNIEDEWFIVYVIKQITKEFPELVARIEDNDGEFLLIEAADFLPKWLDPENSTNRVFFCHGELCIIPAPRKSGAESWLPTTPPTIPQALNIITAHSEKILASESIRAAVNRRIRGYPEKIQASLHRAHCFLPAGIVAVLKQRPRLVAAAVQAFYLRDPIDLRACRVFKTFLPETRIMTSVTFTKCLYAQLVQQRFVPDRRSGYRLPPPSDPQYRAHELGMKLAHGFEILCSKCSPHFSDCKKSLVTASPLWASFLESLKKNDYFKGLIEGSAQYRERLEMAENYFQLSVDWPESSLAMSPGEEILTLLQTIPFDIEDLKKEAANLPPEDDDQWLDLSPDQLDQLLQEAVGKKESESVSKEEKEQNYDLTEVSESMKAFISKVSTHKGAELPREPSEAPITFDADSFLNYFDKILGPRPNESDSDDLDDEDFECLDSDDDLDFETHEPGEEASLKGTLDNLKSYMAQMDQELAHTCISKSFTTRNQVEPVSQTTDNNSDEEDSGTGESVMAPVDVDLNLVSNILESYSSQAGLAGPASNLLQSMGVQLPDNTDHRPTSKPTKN
Sequence of UniProt P12959 (whole entry, looked up): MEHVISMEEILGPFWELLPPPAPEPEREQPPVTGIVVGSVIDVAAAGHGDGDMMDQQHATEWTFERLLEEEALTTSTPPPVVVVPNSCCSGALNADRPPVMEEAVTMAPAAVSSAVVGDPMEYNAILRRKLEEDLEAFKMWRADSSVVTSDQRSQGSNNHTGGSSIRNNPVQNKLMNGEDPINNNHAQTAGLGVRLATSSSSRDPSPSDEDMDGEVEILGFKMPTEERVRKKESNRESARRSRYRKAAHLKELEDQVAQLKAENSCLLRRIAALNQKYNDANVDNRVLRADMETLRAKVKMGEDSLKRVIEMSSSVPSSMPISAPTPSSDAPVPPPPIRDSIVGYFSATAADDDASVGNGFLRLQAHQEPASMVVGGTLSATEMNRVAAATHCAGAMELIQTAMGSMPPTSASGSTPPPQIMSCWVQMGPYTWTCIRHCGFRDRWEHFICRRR
Sequence of UniProt Q6I576 (whole entry, looked up): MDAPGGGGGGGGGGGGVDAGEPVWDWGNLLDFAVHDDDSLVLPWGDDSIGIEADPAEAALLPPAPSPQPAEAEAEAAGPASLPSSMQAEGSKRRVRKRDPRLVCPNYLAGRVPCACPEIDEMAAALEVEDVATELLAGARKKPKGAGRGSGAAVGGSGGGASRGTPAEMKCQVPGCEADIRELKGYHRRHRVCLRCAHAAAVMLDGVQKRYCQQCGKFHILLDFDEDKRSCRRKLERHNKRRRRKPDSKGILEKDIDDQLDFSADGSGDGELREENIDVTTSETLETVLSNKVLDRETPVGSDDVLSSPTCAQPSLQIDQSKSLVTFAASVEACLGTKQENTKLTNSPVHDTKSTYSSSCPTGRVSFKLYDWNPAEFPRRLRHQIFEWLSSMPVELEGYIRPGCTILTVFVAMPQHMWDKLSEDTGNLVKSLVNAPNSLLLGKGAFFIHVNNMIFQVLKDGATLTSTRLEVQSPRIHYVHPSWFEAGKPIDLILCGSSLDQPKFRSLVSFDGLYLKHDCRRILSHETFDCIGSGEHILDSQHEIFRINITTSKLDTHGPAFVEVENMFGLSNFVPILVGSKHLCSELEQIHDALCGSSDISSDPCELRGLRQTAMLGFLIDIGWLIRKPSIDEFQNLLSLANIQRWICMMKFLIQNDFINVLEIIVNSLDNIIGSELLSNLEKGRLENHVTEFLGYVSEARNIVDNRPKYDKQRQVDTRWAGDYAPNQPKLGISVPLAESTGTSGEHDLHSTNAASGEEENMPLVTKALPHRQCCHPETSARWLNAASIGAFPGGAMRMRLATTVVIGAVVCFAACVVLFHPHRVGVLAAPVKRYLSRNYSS
Sequence of UniProt Q9SAH7 (whole entry, looked up): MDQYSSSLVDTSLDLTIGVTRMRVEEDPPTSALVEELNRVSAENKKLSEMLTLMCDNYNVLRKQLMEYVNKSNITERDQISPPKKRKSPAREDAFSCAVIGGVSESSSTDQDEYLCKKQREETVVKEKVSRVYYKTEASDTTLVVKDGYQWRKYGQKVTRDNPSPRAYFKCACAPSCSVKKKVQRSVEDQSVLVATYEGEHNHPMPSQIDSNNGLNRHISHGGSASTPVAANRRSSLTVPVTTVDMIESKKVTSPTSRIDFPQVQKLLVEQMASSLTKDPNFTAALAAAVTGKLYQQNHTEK

GGGGTTCGACAGAACCTA (dsDNA) — binding (Auxin response factor 1-610 (Capsicum annuum, UniProt A0A1U8F1G4); MST; double-stranded DNA, one strand shown): binds
DNA 1 ATACCAGCTTATTCAATT / DNA 2 ATTGCTCCTCAGCAATTGAATAAGCT (dsDNA; 13 bp duplex, 5' overhangs, 5'-NH2) — binding (MUC16 1-14451 (Homo sapiens, UniProt Q8WXI7); magnetic bead strand displacement; double-stranded DNA): no binding
AUACUCUGGUUUCUCUUCAGAUCGCAUAAAUCUUUCGCCUUUUACUAAAGUUUCCGUGGAGAGGAACAACUCUGAGUCUUAACCCAAUUUUUUGAGGCCUUGCUUUGGCAAGGCUA (structured RNA) — binding (ECD 1-644 (Homo sapiens, UniProt O95905); EMSA; folded RNA): binds
TTTTTTTTTTTTTTTTTTTTTTTTTTTTTTTTTTTTTTTTTTTTTTTTTTTTTTTTTTTTTTTTT (ssDNA) — binding (yoaA/holC/ssb 1-636; 1-147; 2-178 (Escherichia coli); EMSA; single-stranded DNA; added: ATPγS): binds
CCAATGTGTAACAAGTAACTTATGACAACACAAATTTCTTCTTTGGTAGAAAACAAACGGGTAAGTAAAAAGAAAAGAAAAAAAGAAGTGAGTGAGAAGAGAGTGTAAGTATAAATAAAAGAAGCACCGCCCTAATCGACCATTCACAACGATGACATTCAAACACTCTTCAG (dsDNA) — binding (WRKY40 full length assumed (Arabidopsis thaliana, UniProt Q9SAH7); EMSA; double-stranded DNA, one strand shown): binds
GCUUAUCUU (ssRNA) — Kd (U2AF2; sequencing of bound RNA; RNA; motif only): 2100 nM
TAAAGTGTCGTTGGCCTTAACAACCAGACTAACATTTTTT (dsDNA) — binding (Transcription factor 1-552 (Triticum aestivum, UniProt G9DR80); EMSA; double-stranded DNA, one strand shown): binds
CAGCCAACTAAACTA (dsDNA) — binding (tnsC 1-503 (Escherichia coli, UniProt P05846); EMSA; double-stranded DNA, one strand shown; added: ATP 0.33 mM): no binding
ACCAAGCGGGATGCGGTGCCGCCGCCGCCGCCG (dsDNA; blunt) — binding (WT1 323-438 (Homo sapiens, UniProt P19544); EMSA; double-stranded DNA, one strand shown): no binding
GATTTTATTTCTTTTATGTTTATGTGTCATCTTGAAACTACCACCGAATGGC (dsDNA) — binding (O2 full length assumed (Zea mays, UniProt P12959); EMSA; double-stranded DNA, one strand shown): binds
GCAGTGAAAAGGGGGTGTGTCAGGATGC (dsDNA) — binding (KLF10 111-210 (Homo sapiens, UniProt Q13118); EMSA; double-stranded DNA, one strand shown): no binding
DNA 1 GCTTAGCTTGGAATCGTATCATGTACACTCGTGTGCCGTGTAGACCGTGCC / DNA 2 TGTACATGATACGATTCCAAGCTAAGC / DNA 3 GGCACGGTCTACACGGCACACGAG (dsDNA; nicked duplex, blunt ends, 5'-phosphate) — binding (PARP1; fluorescence microscopy; double-stranded DNA; condensation, without NAD+): binds
TAAGGCGCAACACAACGTCTCGTACGGTTGTAG (dsDNA; blunt) — binding (SPL9 full length assumed (Oryza sativa, UniProt Q6I576); EMSA; double-stranded DNA, one strand shown): binds
GGAATTGGTCAGTGCTAATCCTTGGTCAGTGCAGCTA (dsDNA) — binding (him-8 full length assumed (Caenorhabditis elegans, UniProt O18068); competition pull-down; double-stranded DNA, one strand shown): binds
CUUUUUAUU (ssRNA) — Kd (U2AF2; sequencing of bound RNA; RNA; motif only): 2130 nM
AGCGTAGCACTGGGCT (dsDNA) — binding (protein full length assumed E367A (Bacillus pumilus, UniProt A3FMN7); EMSA; double-stranded DNA, one strand shown): no binding
CGCCATGCTGATCCGTGTGGTGTGTGTGGG (ssDNA (Saccharomyces cerevisiae)) — binding (Rfa1/Rfa2/Rfa3 (Saccharomyces cerevisiae); BLI; single-stranded DNA): binds
ACAAGAACAUCAAAGUCGAAGAACCUUCCG (ssRNA) — binding (IGF2BP2 1-599 (Homo sapiens, UniProt Q9Y6M1); pull-down; RNA): binds
GGGTTGCGGCCGCTTGGG (dsDNA) — binding (PARP1; fluorescence polarization; double-stranded DNA, one strand shown; stopped-flow): binds

Repeated from above:
GCAGTGAAAAGGGGGTGTGTCAGGATGC (dsDNA) — binding (KLF10 111-210 (Homo sapiens, UniProt Q13118); EMSA; double-stranded DNA, one strand shown): no binding
TAAAGTGTCGTTGGCCTTAACAACCAGACTAACATTTTTT (dsDNA) — binding (Transcription factor 1-552 (Triticum aestivum, UniProt G9DR80); EMSA; double-stranded DNA, one strand shown): binds
